Published values of several laboratories.
Each line is one published result; not all experiments were run side by side. ± marks the error that the study gave.
OPRD1: Delta-type opioid receptor (OPRD1, Homo sapiens, UniProt P41143)
Chain of UniProt P41143 (whole entry, looked up): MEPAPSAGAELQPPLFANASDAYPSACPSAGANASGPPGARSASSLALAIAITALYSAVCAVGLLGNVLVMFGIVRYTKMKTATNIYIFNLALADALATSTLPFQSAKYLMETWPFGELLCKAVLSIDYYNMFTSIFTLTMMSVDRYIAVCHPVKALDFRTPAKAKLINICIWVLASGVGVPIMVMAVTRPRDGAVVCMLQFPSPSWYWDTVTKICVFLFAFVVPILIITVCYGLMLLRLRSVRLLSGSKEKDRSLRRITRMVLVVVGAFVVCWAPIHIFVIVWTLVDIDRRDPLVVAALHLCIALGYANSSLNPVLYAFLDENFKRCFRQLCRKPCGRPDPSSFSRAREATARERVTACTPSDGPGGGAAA
OPRD1 with Gi1: Delta-type opioid receptor, with Gi1 (OPRD1, Homo sapiens, UniProt P41143)

Structure (SMILES)	target	test	test system	conditions	scale	measurement	value
CCCCCCNC(=O)c1ccc(C[C@H](N)C(=O)N2Cc3ccccc3C[C@H]2C(=O)N[C@@H](Cc2ccccc2)C(=O)N[C@@H](Cc2ccccc2)C(=O)O)cc1	OPRD1	agonist	HEK293 cells expressing OPRD1	–	–	EC50	0.103 nM
N=C(N)NCCCCCCCN1CC[C@]23c4c5ccc(O)c4O[C@H]2c2nc4ccccc4cc2C[C@@]3(O)[C@H]1C5	Delta-type opioid receptor, with β-arrestin1 (OPRD1, Homo sapiens, UniProt P41143)	–	human cells	–	–	Emax	45 ± 3%
C[C@@H](NC(=O)[C@@H](N)Cc1ccc(O)cc1)C(=O)NCC(=O)N[C@@H](Cc1ccccc1)C(=O)N1CCN(C(=O)[C@H](Cc2ccccc2)NC(=O)CNC(=O)[C@@H](C)NC(=O)[C@@H](N)Cc2ccc(O)cc2)CC1	OPRD1	GTPγS binding, agonist	–	cell membranes	–	Emax	56.9%
N=C(N)NCCCN1CC[C@]23c4c5ccc(O)c4O[C@H]2c2nc4ccccc4cc2C[C@@]3(O)[C@H]1C5	OPRD1 with Gi1	–	human cells	–	–	Emax	90 ± 3%
C[C@H]1[C@H]2CCC[C@]1(c1cccc(O)c1)CCN2CCc1ccccc1	OPRD1	radioligand competition binding	CHO membranes	with: [3H]diprenorphine	baseline: Ki DOR over Ki MOR	selectivity ratio	170 fold
CCCC[C@@H](C(=O)N[C@@H](CC(=O)O)C(=O)N[C@@H](Cc1ccccc1)C(N)=O)N(C)C(=O)[C@@H](Cc1c[nH]c2ccccc12)NC(=O)CNC(=O)[C@@H](Cc1ccccc1)NC(=O)[C@@H](N)Cc1ccc(O)cc1	OPRD1	GTPγS binding, agonist	–	–	–	EC50	33.8 nM
COC(=O)C1C(OC(c2ccc(Cl)cc2)c2ccc(Cl)cc2)CC2CCC1N2C (single isomer, unassigned)	OPRD1	binding, radioligand displacement	–	inactive if below 75% at 10000 nM, with: [3H]Naltrindole	–	Ki	inactive
N=C(N)NCCCCCCN1CC[C@]23c4c5ccc(O)c4O[C@H]2c2[nH]c4ccccc4c2C[C@@]3(O)[C@H]1C5	OPRD1 with Gi1	–	human cells	–	–	Emax	52 ± 2%
CC(C)C[C@H](NC(=O)[C@@H]1CCCN1C(=O)[C@H]1NC(=O)[C@H](Cc2ccccc2)NC(=O)CNC(=O)[C@H](NC(=O)[C@@H](N)Cc2ccc(O)cc2)C(C)(C)SSC1(C)C)C(=O)N[C@@H](Cc1c[nH]c2ccccc12)C(=O)NCc1cc(C(F)(F)F)cc(C(F)(F)F)c1	OPRD1	GTPγS binding, agonist, radiometric	–	cell membranes	–	Emax	57%
CCOC(=O)C1C(OC(c2ccc(Cl)cc2)c2ccc(Cl)cc2)CC2CCC1N2C (single isomer, unassigned)	OPRD1	binding, radioligand displacement	–	inactive if below 75% at 10000 nM, with: [3H]Naltrindole	–	Ki	inactive
CCCC[C@@H]1NC(=O)[C@H](Cc2ccccc2)NC(=O)CNC(=O)[C@H](NC(=O)[C@@H](N)Cc2ccc(O)cc2)C(C)(C)SSC(C)(C)[C@H](C(=O)N[C@@H](Cc2c[nH]c3ccccc23)C(=O)NCc2cc(C(F)(F)F)cc(C(F)(F)F)c2)NC(=O)[C@@H]2CCCN2C1=O	OPRD1	GTPγS binding, agonist, radiometric	–	cell membranes	–	Emax	42%
CCCC[C@H](NC(=O)[C@H](Cc1ccccc1)NC(=O)CNC(=O)[C@@H](C)NC(=O)[C@@H](N)Cc1ccc(O)cc1)C(=O)N1CCC[C@H]1C(=O)N[C@@H](CC(C)C)C(=O)N[C@@H](CO[C@@H]1O[C@H](CO)[C@@H](O)[C@H](O)[C@H]1O)C(=O)N[C@@H](Cc1c[nH]c2ccccc12)C(=O)NCc1cc(C(F)(F)F)cc(C(F)(F)F)c1	OPRD1	binding, radioligand competition	–	with: [3H]DPDPE	baseline: Ki rat MOR over Ki human DOR	selectivity ratio	39
Cc1cc(O)cc(C)c1C[C@H](N)C(=O)N[C@@H]1CSSC[C@@H](NC(=O)[C@@H](N)Cc2c(C)cc(O)cc2C)C(=O)NCC(=O)N[C@@H](Cc2ccccc2)C(=O)NNC(=O)[C@H](Cc2ccccc2)NC(=O)CNC1=O	OPRD1	agonist, GTPγS binding	CHO	concentration not given	–	agonist activity	inactive
C[C@@H](NC(=O)[C@@H](N)Cc1ccc(O)cc1)C(=O)NCC(=O)N[C@@H](Cc1ccccc1)C(=O)Nc1ccccc1NC(=O)[C@H](Cc1ccccc1)NC(=O)CNC(=O)[C@@H](C)NC(=O)[C@@H](N)Cc1ccc(O)cc1	OPRD1	GTPγS binding, agonist	–	cell membranes	–	Emax	83%
N[C@@H](Cc1ccc(C(=O)NCCc2ccc3ccccc3c2)cc1)C(=O)N1Cc2ccccc2C[C@H]1C(=O)N[C@@H](Cc1ccccc1)C(=O)N[C@@H](Cc1ccccc1)C(=O)O	OPRD1	G-protein activation, agonist	HEK293 stably expressing receptor	–	baseline: DPDPE	relative potency	7 to 14 fold

Repeated from above:
Structure (SMILES)	target	test	test system	conditions	scale	measurement	value
CCCCCCNC(=O)c1ccc(C[C@H](N)C(=O)N2Cc3ccccc3C[C@H]2C(=O)N[C@@H](Cc2ccccc2)C(=O)N[C@@H](Cc2ccccc2)C(=O)O)cc1	OPRD1	agonist	HEK293 cells expressing OPRD1	–	–	EC50	0.103 nM
C[C@@H](NC(=O)[C@@H](N)Cc1ccc(O)cc1)C(=O)NCC(=O)N[C@@H](Cc1ccccc1)C(=O)Nc1ccccc1NC(=O)[C@H](Cc1ccccc1)NC(=O)CNC(=O)[C@@H](C)NC(=O)[C@@H](N)Cc1ccc(O)cc1	OPRD1	GTPγS binding, agonist	–	cell membranes	–	Emax	83%
